Published values of several laboratories.
A part holds a random share of what one study measured. Substitutions count along the parent as printed.

Sample 1
Target: RING finger protein unkempt homolog, zinc fingers 1-6, GST-SBP tag (UNK, Homo sapiens, UniProt Q9C0B0, residues 30-357)
Method: RNA Bind-n-Seq
Form: RNA
Medium: in vitro
Tested at: not given
Setting: RNA with constant flanks, human-mouse chimeric sites, ends assumed
Reference: input RNA pool
Reading: higher = stronger binding
Measurement: bound/input enrichment
Shared flanks, not repeated: GGGAGUUCUACAGUCCGACGAUC … CAACAGAGGAUUGAGCAUCA
Target sequence (chain): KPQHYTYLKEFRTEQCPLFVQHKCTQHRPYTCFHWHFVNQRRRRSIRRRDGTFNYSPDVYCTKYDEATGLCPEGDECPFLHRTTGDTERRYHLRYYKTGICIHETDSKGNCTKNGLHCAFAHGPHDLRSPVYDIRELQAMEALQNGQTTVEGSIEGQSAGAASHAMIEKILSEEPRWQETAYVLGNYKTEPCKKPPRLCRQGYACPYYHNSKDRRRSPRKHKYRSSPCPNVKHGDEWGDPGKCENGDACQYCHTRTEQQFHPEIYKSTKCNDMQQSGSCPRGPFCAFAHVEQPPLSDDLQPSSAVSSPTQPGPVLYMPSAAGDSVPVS
Sequence = AGAGAUAAGACAUCCAGGAACAUGCGAGGGUCACGGAUGAAUGGGUUUCCAAGUCCCACUCACAGCGCCCACUGUAGCUUCUACCGAACCAGAACCUUGCAGGCACUGAGUAAUGAGAAG; result = 0.129 ratio
Sequence = GUUGCCAGCUUCCGGUUCCGUUGGGCUCGGUUCUCUCCUGAGCUACGUGUCUCUACGCUCUCAAUCCGCCAUCCAACAAACAUGGAUCAGGUAAUGCUGCAGUUUGUGCCCAGCCGGCAG; result = 0.191 ratio
Sequence = GUUGCCAGCUUCCGGUUCCGUUGGGCUCGGUUCUCUCCUGAGCUACGUGUCUCUACGCUCUCAAUCCGCCAUCCAACAAACAUGGAUGAUCAGGUAAAGUUUGUGGAGCCCAGCCGGCAG; result = 0.0801 ratio
Sequence = GGACAUCUGUCAAAUUGUUAUGUUCCUGUGAAACAAGUGAACACUCUGAUACACUUCAUUUAGUUGUACAUCUGUAUGAUAGAGAAAUGUAAAUAUGUUAAUCCAAGCAAUGUGUCACUU; result = 0.265 ratio
Sequence = CUCAUGGCUGCAGAAACAGGAAGUGGAAAAACUGGUGCAUUUAGUAUUCCAGUUAUCCAGAUAGUGUAUGAAACUCUGAAAGACCAACAGGAAGGCAAGAAAGGGAAAACAACUAUUAAA; result = 0.455 ratio
Sequence = UAAAUUAGGGCUGCCGUUUUCUGUUUCUCCCUGGGCUGCGGAAAGCCAGAAGAUUUUAUCUAGCUUAUACAAGGCUGCUGGAGCUUGCUCUUUUUUUCCCUCUCUCUGUUUUUGGCUGCA; result = 0.935 ratio
Sequence = UUACCCGAGAACGAGGAUGAGCUGGAGAGCACCAACAGGCGCUACACCAAGAGAGACUGUAGCACUUUCCUCAGAACUAGUGAGACGGGCAUCGUGGACCAGGUCAUGGUCACUCUCAAC; result = 0.225 ratio
Sequence = GUAGCUGGGACUACAGAAAUGCUGGUAGUGCUCCGGCCUUGCUGAUGACUUCUGAUGUCCCAGCAAAUGUUGGCAUUCACUGCAAUAGAGAAGAUACUUCUGAGGACCCACGUCUAAGGU; result = 0.166 ratio

Sample 2
Target: Histone acetyltransferase KAT6A, winged helix 2, GST fusion (KAT6A, Homo sapiens, UniProt Q92794, residues 85-181)
Method: protein binding microarray
Form: double-stranded DNA, one strand shown
Medium: in vitro
Tested at: not given
Setting: 8-mer, flanks averaged, mean of 2 arrays, mostly near background
Reference: not given
Reading: higher = stronger binding
Measurement: E-score
Construct (chain): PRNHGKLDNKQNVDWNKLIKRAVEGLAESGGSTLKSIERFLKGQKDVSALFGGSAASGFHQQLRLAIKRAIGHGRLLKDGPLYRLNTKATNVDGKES
Sequence = AACTCCTC; result = -0.175
Sequence = CTACGGCC; result = 0.0655
Sequence = ATCACCGC; result = -0.106
Sequence = AAAGATTA; result = 0.101
Sequence = AGCTCGGA; result = -0.0423
Sequence = GCACCCTA; result = -0.0492
Sequence = ATAAACGA; result = 0.0218
Sequence = CAGAAAAA; result = 0.152
Sequence = ATGTTAAC; result = -0.152
Sequence = GATAGATA; result = -0.0165
Sequence = ACCGAGAA; result = -0.131
Sequence = AGTTGGGA; result = 0.0255
Sequence = ACTTAAAA; result = 0.141
Sequence = AATTTGTA; result = -0.0702
Sequence = AGTCGGAT; result = -0.038
Sequence = ACAAGTGT; result = -0.114
Sequence = TCCCCTCA; result = 0.0768
Sequence = CAGGAGTC; result = -0.0441
Sequence = TGTAGCAA; result = 0.0784
Sequence = ACACCCCA; result = -0.137
Sequence = CAGGGTGC; result = -0.119
Sequence = CGAAGGTA; result = 0.0079
Sequence = CACATCGG; result = -0.0262
Sequence = ACTCATCT; result = -0.136
Sequence = ACACATCT; result = -0.15

Sample 3
Target: CCNB1, cyclin fold, Cln2 fusion (human)
Method: yeast growth competition, sequencing
Medium: yeast
Setting: weak parent motif
Reference: not given
Reading: higher = stronger binding
Measurement: normalised enrichment score
Starting sequence: RBL1 docking peptide (human); GSAKRRLFGEDPP
Substitution = GSANRRLFGEDPP [K4N]; result = 0.549
Substitution = GSAKRRLHGEDPP [F8H]; result = 0.439
Substitution = GSAKRRLFGNDPP [E10N]; result = 0.479
Substitution = LSAKRRLFGEDPP [G1L]; result = 0.756
Substitution = GSAKRRLFTEDPP [G9T]; result = 1.4
Substitution = GSAKRRLFGEMPP [D11M]; result = 0.435
Substitution = GSAKRRLFNEDPP [G9N]; result = 1.92
Substitution = GSAKRRLWGEDPP [F8W]; result = -0.298
Substitution = GSAKRRLFGEDPN [P13N]; result = 1.25
Substitution = GSAKRRLFGEDHP [P12H]; result = 0.413
Substitution = GSAKRRLFQEDPP [G9Q]; result = 0.463
Substitution = ISAKRRLFGEDPP [G1I]; result = 1.5
Substitution = GHAKRRLFGEDPP [S2H]; result = 1.23
Substitution = GSAKRRLFDEDPP [G9D]; result = 0.725
Substitution = GSAKRRLFGHDPP [E10H]; result = -0.0566
Substitution = GSKKRRLFGEDPP [A3K]; result = 0.588
Substitution = GSAKRRLFPEDPP [G9P]; result = 1.24
Substitution = GSAKRRLFKEDPP [G9K]; result = 0.816
Substitution = GWAKRRLFGEDPP [S2W]; result = -0.32
Substitution = GSAKRRLFGEWPP [D11W]; result = 0.606

Sample 4
Target: RNA binding protein fox-1 homolog 2, RRM domain, GST-SBP tag (RBFOX2, Homo sapiens, UniProt O43251-10, residues 100-194)
Method: RNA Bind-n-Seq
Form: RNA
Medium: in vitro
Tested at: 365 nM
Setting: natural RNA segment, single round, ends assumed
Reference: no-protein control
Reading: higher = stronger binding
Measurement: RBNS enrichment (R)
Shared flanks, not repeated: GGGAGUUCUACAGUCCGACGAUC … UGGAAUUCUCGGGUGCCAA
Residues (chain): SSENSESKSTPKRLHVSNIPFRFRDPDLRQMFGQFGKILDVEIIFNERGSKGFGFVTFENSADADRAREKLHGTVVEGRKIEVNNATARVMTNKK
Sequence = UAUCCUCCUAAAGACCUCCAAAGUUUUUAUGGAAGGGUAAAUACUGGUACCUUCCCCCAGCUUUCCAUCUGAGGACCAGAAAAGUUGUGUCUCCCUUAGAUGAGAUCUAG; result = 0.251
Sequence = UCGUCCAACCCUAAGCCUCUUCCUUAAGGUUCUUGUGACAGAUCCAGUUCAGGGAGGAGGCACUGAGAUUUGGUUAGGGCCAUCGCGAACCCCACACACCCAUCCUCCCA; result = 0.272
Sequence = UCUUGCCUCCCUCACGGGGCGUCACCCCCAGCCCAGCUCCGUUGUACAUAAAUGCCUUGUGGCAGAGCUCCCGGUGAACUUCUGGAUCCCGUUUCUGAUGCAGACUCUUG; result = 0.645
Sequence = AUAAUUACAUUGGCACAAUGUAUACUUCAGUGCUCACCCGUAGGCAAAUCUCUUUUUAAAAAACUCUUUGGUGCACAAGUAACACAUUUGGCCACAAAACACCAAAGAAU; result = 0.51
Sequence = UGGCGUGACUGACGGCUGAGGCCUGCCUCUCCUUCCCAAGCCCCCUUCCUUCAUCCUUGGGGGUCUCAGGCUGCCCCCAUCAUGGGGGUCUGGGCCCUGCCCACCCUCCU; result = 0.242
Sequence = UAACUUUGUGCUGAGUUAGACAUCUGUAUUGUCAGUGAUUCUUGUAGAAUAUGUGCUCAGAUCUGAGUUAUAUUUAGUUUUGGAAGGUAAGUUGAAGAGUACUUUUGAUC; result = 0.825
Sequence = GCCUCGCACGUGCACCAGACCCCAUGAGAGGGCCGAGCUCUGCGAGGGGGAAAUGCCUUUGCAGCUCCAUUUAGUUGUUUGGAGACUGCUCCUGGGAUGCUAACCUGAUG; result = 0.553
Sequence = UGUCCUUCAACCAUAUCCUGCAACUUCUCAAACUGUACUAAAUUGAUAUUUCUUGAAGUCUAACUCUGUGCUAACAGAUCUUCAUUUUAAAUAGAAUACGGUUUUAAUUU; result = 0.322
